Published values collected from several papers.
Each numbered part is a random draw from the data of one study; scales do not carry over between parts. Substitutions count along the parent as printed.

Block 1
Target: CEBPD, bZIP domain (human)
Technique: DHFR protein complementation
Medium: yeast
Setting: single substitutions, most at no-binding floor
Reference: wild-type JUN-FOS pair
Direction: higher = stronger binding
Starting sequence: JUN, bZIP domain (human); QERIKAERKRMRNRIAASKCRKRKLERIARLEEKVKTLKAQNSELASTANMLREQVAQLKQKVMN; partner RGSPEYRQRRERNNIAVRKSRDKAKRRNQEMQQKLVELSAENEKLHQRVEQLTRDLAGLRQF
Variant | binding fitness [natural log]
L45K | -1.35
Q41R | -1.37
L38A | -1.29
N42M | -1.45
T48Y | -1.4
L38T | -1.5
K34V | -1.38
E44W | -1.4
R53C | -1.28
K34R | -1.35
R53I | -1.42
L45E | -1.49
L52R | -1.48
T48Q | -1.27
A40L | -1.34
A49K | -1.47
K36L | -1.28
M51S | -1.35
K36V | -1.4
E44K | -1.41

Block 2
Target: RNA binding protein fox-1 homolog 2, RRM domain, GST-SBP tag (RBFOX2, Homo sapiens, UniProt O43251-10, residues 100-194)
Technique: RNA Bind-n-Seq
Form: RNA
Medium: in vitro
Tested at: 365 nM
Setting: natural RNA segment, single round, ends assumed
Reference: no-protein control
Direction: higher = stronger binding
All sequences stand within: GGGAGUUCUACAGUCCGACGAUC … UGGAAUUCUCGGGUGCCAA
Residues (chain): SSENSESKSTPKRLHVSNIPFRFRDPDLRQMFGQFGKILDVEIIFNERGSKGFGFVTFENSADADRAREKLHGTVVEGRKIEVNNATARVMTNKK
Sequence | RBNS enrichment (R)
CAGGGACGCAGUUGUUACGAGGUUAGACGUGGCAGCUCUGUGCAGUGUUUGAGCCUACAGUGGGAUACAUAGGGUCAAAUUGAGAAUAAUAAACUGAGUCAUUCUCCUGG | 0.561
UAUUAUGCAAGAAAAUCCCAAAAAUAUGUUUUAAGGGAGACUACACAGACCUUGUGAUUUGGUCUGAGCUAGUUGCUGAGUUGACUGGAGCCUUAUUUGAAUGGAUCUUU | 0.753
UGUAUCGUCUCCUUCUCCCUAAAGUGUACUUAAUCUUUGCUUUCUUUGCACAAUGUCUUUGGUUGCAAGUCAUAAGCCUGAGGCAAAUAAAAUUCCAGUAAUUUCGAAGA | 1.45
CAAAACUACGGAUGUCAGAGGGACCUGUUUCUAGAGUGAGUCCCAAUUACAUCAAAGGGCAACCUGCGCUUUCUCCAAUAAGUCUGAGUGGUUCUCUUGAGCUGGUGUCA | 0.247
UAGCCCCACCCAGGGGGAGGGGCUUAGCUGCUGAAAGUCCACCUUGCUAGAGCUAGGGUGGCUCUUGCAGCUUAGCACCCCCCAAGAUCCUUGUCCACCCCUCCCCUGGC | 0.38
CCCUGCCUCGUUUCCAUCAAGCAUUCCAGUAGCCCCCACAGAGGCCCUCAGCUCAGUUUUUGGCUCUGUUAUGGAGCCUUAGUACCCACCCCGUCUGUGUCCCCCAUGAA | 1.05
UGUUGUCUUUCCUGUCCCAACCUACACGGGUCUCUGUAACAUUCCACUAUUCAAACUUCCAAGGAGUCCCACUCUCAGGGGGCGGGGCACAGAGCUAAAAUCUCCAAAAG | 0.388
CUAAUUACCAGGCCAGGAAGCAUGCCAACAAAGCCACACGGGUGUCCUAGCCAGCUUCCCUUCACCUGGUGUCUUGAGUAGGGCGUCUCCUGUAAUUACUGCCUUGCCAU | 1.08
CUCCAUAGGUGGGUUUGUAGGGUCUUGUGUUGCUUCUGGUCUCUCCAGGCUUGGCUGAGACGGACGGUAGACUUCCACCAUGUACCGAUCACAUCCCAGCUCUGCAUGGC | 1.67
UGAAGUUCAUUAUUUUGUGGUUUUAUUUUACUUUGUACUUGUGUUUGCUUAAACAAAGUAACCUGUUUGGCUUAUAAACACAUUGAAUGCGCUCUAUUGCCCAUGGGAUA | 1.21
AGAGCCUCUGGACGGCCUUGGCAACAGCAAAAUCAUGGGACAACACCUCUCUCCACGGAAAGGUCACAGUGGACAGCCCGGGCAGUAGGAUGCAGCCCCAGAGGCUGGUG | 0.956
ACAGUUUUAGAAGUCAGUAGAAUAAAACCUUAAAGCGUUCUUAUAAUAUGGCAUCUUUCGAUUUCUGUAUAAAAACAGACCUUUUAAAAAAUAUUUCUGUAACUUAAGAA | 0.751

Block 3
Target: PABPC1L2, full length, GST fusion (mouse, UniProt A0ABA7IW68)
Technique: RNAcompete
Form: RNA
Medium: in vitro
Tested at: 20 nM
Setting: 7-mer, probes averaged, single round
Reference: mean of 7-mers
Direction: higher = stronger binding
Residues (chain): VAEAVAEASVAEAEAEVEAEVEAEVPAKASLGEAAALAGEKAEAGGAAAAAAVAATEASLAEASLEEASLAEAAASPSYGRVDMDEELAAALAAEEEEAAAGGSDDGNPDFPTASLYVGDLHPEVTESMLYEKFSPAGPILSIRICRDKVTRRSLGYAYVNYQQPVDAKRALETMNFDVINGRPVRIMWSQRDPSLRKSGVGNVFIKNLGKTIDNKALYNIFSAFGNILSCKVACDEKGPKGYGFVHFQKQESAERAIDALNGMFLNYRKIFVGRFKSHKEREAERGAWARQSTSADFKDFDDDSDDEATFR
Sequence | 7-mer Z-score
CUAUAAC | -0.146
CACCGGG | 0.102
GAAUAUA | 0.0533
CAUCGCG | -0.104
CCCUUAU | -0.418
UCGAAAU | -0.112
AUUUGGU | -0.184
GCUGGCU | -0.128
ACAGGCU | -0.0174
UGGCGAG | 0.131
CGAUUCU | -0.199
UGACAAG | 0.0877
AACCUCC | -0.217
CAAGCAA | 0.0859
CAUGAAC | 0.131
GAUAGAC | -0.184
CUGCAGU | -0.311
GCCCCGC | -0.456
GCGUCUA | -0.175
UAUCCUU | -0.206
AAGGAAG | 0.247
ACAAGCC | -0.0573
UUGGGCA | -0.0246

Block 4
Target: Sal-like protein 4, full length isoform B (SALL4, Homo sapiens, UniProt Q9UJQ4-2, residues 1-616)
Technique: universal PBM
Form: double-stranded DNA, one strand shown
Medium: in vitro
Tested at: not given
Setting: 8-mer, flanks averaged, mean of replicates
Direction: higher = stronger binding
Target sequence (chain): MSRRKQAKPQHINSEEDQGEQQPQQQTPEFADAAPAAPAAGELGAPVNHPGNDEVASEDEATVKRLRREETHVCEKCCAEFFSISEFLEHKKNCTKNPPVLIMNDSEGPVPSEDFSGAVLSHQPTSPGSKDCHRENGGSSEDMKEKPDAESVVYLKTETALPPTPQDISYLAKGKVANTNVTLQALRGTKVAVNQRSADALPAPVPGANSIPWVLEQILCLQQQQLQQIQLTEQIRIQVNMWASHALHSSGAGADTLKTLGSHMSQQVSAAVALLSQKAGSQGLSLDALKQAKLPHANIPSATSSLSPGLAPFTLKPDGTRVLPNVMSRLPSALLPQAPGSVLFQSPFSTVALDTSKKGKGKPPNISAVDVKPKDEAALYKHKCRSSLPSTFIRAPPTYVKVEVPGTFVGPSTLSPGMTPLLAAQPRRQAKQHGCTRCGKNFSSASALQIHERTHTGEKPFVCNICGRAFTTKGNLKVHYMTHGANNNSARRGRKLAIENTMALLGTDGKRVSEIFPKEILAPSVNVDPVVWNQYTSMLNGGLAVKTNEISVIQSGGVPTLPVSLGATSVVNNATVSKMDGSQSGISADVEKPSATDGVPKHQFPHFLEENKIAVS
Sequence | E-score
AACATTCC | 0.0514
AAGGTGGG | -0.25
GCCTATGA | 0.0905
CTCGTTAC | 0.0619
CCCTGTCA | -0.187
AATGGCCG | -0.216
CATGGCTA | 0.095
AACTAGTA | 0.131
ACTGGAGC | -0.18
GAATAACA | 0.196
GCAACAGC | -0.138
ATTCTCAC | 0.116
GAAAGCCC | -0.141
GACCACTC | -0.175
CGACTTAC | -0.0929
TCTTAAAA | 0.25
CGGAGCCA | -0.311
ACAGGTTA | 0.0456
CCGCATTC | -0.126
ACCTCCGG | -0.289

Block 5
Target: TAR DNA-binding protein 43, full length, His tag (TARDBP, Homo sapiens, UniProt Q13148, residues 1-414)
Technique: RNA Bind-n-Seq
Form: RNA
Medium: in vitro
Tested at: 20 nM
Setting: 6-mer, flanks averaged, single round
Together with: 150 mM KCl
Reference: input library
Direction: higher = stronger binding
Sequence | 6-mer enrichment (R)
AAAUGU | 0.721
GGAACC | 1
UAACUA | 0.645
GCUGGG | 3.81
GUGUCA | 0.859
CUGCCU | 0.637
GAUUAU | 0.601
UCUCGC | 0.586
CACAAC | 0.653
AUCCAA | 0.579
CUUUGU | 0.646
GAGUGA | 1.66
CCUAUU | 0.608
AACAAU | 0.97
CCAGUG | 0.968
CUCAUA | 0.56
GGUUAA | 0.885
GGUAUG | 1.8
UGCGUG | 1.64
AAGGGC | 2
CGGUCA | 0.793
GUGCUU | 0.809
AGAUUA | 0.585
GCACAC | 0.785
CAAUUU | 0.643

Block 6
Target: CCNA1, cyclin fold, Cln2 fusion (human)
Technique: yeast growth competition, sequencing
Medium: yeast
Setting: weak parent motif
Reference: not given
Direction: higher = stronger binding
Starting sequence: DOT1L docking peptide (human); SEAKRRIVFTITT; partner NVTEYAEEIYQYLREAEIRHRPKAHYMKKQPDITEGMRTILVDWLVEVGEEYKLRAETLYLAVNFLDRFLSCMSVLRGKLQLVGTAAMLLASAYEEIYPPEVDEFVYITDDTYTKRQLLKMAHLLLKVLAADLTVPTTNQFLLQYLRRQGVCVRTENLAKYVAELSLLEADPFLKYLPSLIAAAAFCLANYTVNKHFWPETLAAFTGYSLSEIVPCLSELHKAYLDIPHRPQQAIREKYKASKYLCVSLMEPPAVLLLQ
Variant | normalised enrichment score
SEAKRAIVFTITT [R6A] | -0.0683
SEAKRRIVFTATT [I11A] | 0.092
SEAKRRIVATITT [F9A] | 0.142
SEAKRRIVFAITT [T10A] | -0.0704
SEAKARIVFTITT [R5A] | -0.0699
SEAKRRAVFTITT [I7A] | -0.00297

Block 7
Target: Histone acetyltransferase KAT6A, winged helix 2, GST fusion (KAT6A, Homo sapiens, UniProt Q92794, residues 85-181)
Technique: protein binding microarray
Form: double-stranded DNA, one strand shown
Medium: in vitro
Tested at: not given
Setting: 8-mer, flanks averaged, mean of 2 arrays, mostly near background
Reference: not given
Direction: higher = stronger binding
Target sequence (chain): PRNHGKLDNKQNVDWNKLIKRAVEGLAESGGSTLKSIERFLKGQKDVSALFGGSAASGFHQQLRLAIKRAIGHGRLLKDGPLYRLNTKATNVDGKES
Sequence | E-score
TCTCCGAA | 0.0622
ACGGATCA | 0.01
GATGTAGC | -0.119
AAATCTCG | 0.0183
GGCTAAAC | 0.0887
CGTGAACC | -0.00026
CAAATACA | -0.165
GGCTACCC | -0.129
CCGAGAAG | -0.0356
ACTTGTTC | 0.146
ATTGACCG | -0.0789
ATCCATTC | 0.0231
ACCCATAT | -0.158
AGAACTGA | 0.0842
AAACATTA | -0.0732
CAATGGTG | -0.094
AAGTACGT | -0.0777
AAAGCGAT | 0.0635
ATAACTGA | -0.0517
